Measurements gathered from unrelated publications.
Numbered parts are unrelated; each lists some results of a single study. Positions count from the first letter of the parent shown.

Series 1 — method: protein-binding microarray; form: double-stranded DNA, one strand shown; sample: in vitro; tested at: 2540 nM top; notes: 60-bp whole probe; added: salmon DNA 0.4 mg/ml; relative to: random background probes; reading: higher = stronger binding; quantity: fitted relative affinity; constant ends, left off below: GCCTAGCAC … GTCTTGATTCGCTTGACGCTGCTG
Target: Interferon regulatory factor 3, full length, phosphomimetic (IRF3, Homo sapiens, UniProt Q14653, residues 1-427, S386D/S396D/S398D/S402D/T404D/S405D)
Target sequence (chain): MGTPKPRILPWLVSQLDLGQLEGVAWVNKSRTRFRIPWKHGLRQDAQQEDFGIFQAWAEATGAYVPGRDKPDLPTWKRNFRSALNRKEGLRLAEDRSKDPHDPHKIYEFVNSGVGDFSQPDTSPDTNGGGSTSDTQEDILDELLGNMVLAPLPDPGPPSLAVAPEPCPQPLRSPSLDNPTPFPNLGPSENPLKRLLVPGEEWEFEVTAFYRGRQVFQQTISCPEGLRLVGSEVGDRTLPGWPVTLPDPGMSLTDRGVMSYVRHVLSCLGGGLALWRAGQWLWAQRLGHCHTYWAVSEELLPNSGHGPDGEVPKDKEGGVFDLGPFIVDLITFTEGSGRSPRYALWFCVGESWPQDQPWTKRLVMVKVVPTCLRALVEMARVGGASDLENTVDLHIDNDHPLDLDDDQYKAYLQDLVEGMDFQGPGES
Oligonucleotide = GACGGTATGGGGTATCGGGACGTGCTA; result = -0.229 z-score
Oligonucleotide = GAGGATATCGGGTTTCGAGACGTGCTA; result = 0.732 z-score
Oligonucleotide = TTAGGTCTCGGACTCGGTTAGTGCTAG; result = 0.181 z-score
Oligonucleotide = TTGGTTTTCATTATTGCTTCGTGCTAG; result = 2.55 z-score
Oligonucleotide = GAAAATCCCACATTTGATAAAGTGCTA; result = 0.645 z-score
Oligonucleotide = TTAGAACTGAGGTTCGATTAGTGCTAG; result = -0.195 z-score
Oligonucleotide = TCATGATTACATATATGACTGTGCTAG; result = 0.453 z-score

Series 2 — method: RNA Bind-n-Seq; form: RNA; sample: in vitro; tested at: 365 nM; relative to: no-protein control; reading: higher = stronger binding; quantity: RBNS enrichment (R)
Target: RNA binding protein fox-1 homolog 2, RRM domain, GST-SBP tag (RBFOX2, Homo sapiens, UniProt O43251-10, residues 100-194)
Notes: natural RNA segment, single round, ends assumed
Constant ends, left off below: GGGAGUUCUACAGUCCGACGAUC … UGGAAUUCUCGGGUGCCAA
Target sequence (chain): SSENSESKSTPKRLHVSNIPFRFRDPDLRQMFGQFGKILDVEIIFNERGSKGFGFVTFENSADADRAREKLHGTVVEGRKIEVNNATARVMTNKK
Oligonucleotide = UUUUAAGUUCUUAUGAGGAGGGGAGGGUAAAUAAACCACUGUGCGUCUUGGUGUAAUUUGAAGAUUGCCCCAUCUAGACUAGCAAUCUCUUCAUUAUUCUCUGCUAUAUA; result = 0.343
Oligonucleotide = UUGAAUCAGAUUUUUUAAAAGGGGUAUUUGUUUUUUUAUAACAGGUAUUGAAACAAGUUAACUUGCAUUCCUAUGUAAGAUAGGAGGGGCUGAGGGGAUCCCCAGUGUUU; result = 0.509
Oligonucleotide = GUAUUUGAGAUGGGGCCUUUGGUAAGGGAAGUUUAGAUGAGGUCACGAGGGUAGGACCCUCAUGAUGGGAUGAGUCCCCUUACAAGACCUCUGGCUUGGGCCGGGCGUGG; result = 1.58
Oligonucleotide = UACCUUAAGUUUUUUUUGUUUUGUUUUUGUUUUUUUGUUUUUUGUUUUCCUUUAUGAAGAAAAAAUAAAAUAGUCACAUUUUAAUACUACUCUAGUUAGGACAGACUUGU; result = 0.829
Oligonucleotide = CAAAAUGUGAGUCAGUGUGAUGAAGCAGUGGCUCUGUCAUCUCGGCCUUUAUCCAAUAACAAACCAGCAUCUCUUAAAGGCGCUUUUGGCCUAGACACCCCUGAAGUUUG; result = 0.455
Oligonucleotide = CUUUUCUUUUUUUAACCCUUACUCUCCCUGCAGACUCAACCAUGACUGUUCUGCGUUGGAACAGAUGGAGUGAGAAACCCUACAGCCUGCCCGAACCCAGACUCUCCCCC; result = 1.03

Series 3 — target: BATF2, bZIP domain (human); method: DHFR protein complementation; sample: yeast; relative to: wild-type JUN-FOS pair; reading: higher = stronger binding; quantity: binding fitness
Notes: single substitutions, most at no-binding floor
Starting sequence: JUN, bZIP domain (human); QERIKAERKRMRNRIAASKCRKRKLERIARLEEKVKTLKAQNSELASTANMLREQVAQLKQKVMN; partner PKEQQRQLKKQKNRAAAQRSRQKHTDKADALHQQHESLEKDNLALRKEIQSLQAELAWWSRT
Substitution = L31A; result = -0.757 natural log
Substitution = V35C; result = -0.304 natural log
Substitution = K34M; result = -0.386 natural log
Substitution = L52Q; result = -1.14 natural log
Substitution = L59H; result = -0.661 natural log

Further values, each from its own experiment
Molecule = PhoQ, residues 284 288 289 292 302 303 TVTVVA; target = PhoP, residues 12 14 15 18 19 HEGLL (Escherichia coli, UniProt P23836); test = Sort-seq, measured: YFP reporter; test system = E. coli; conditions = PhoQ-PhoP variant library, added: 10 µM Mg2+; how to read = relative to: high Mg2+ state, higher = stronger signaling; quantity = fold induction; result = 5.96

Some of these lines once more (further values, each from its own experiment):
Molecule = PhoQ, residues 284 288 289 292 302 303 TVTVVA; target = PhoP, residues 12 14 15 18 19 HEGLL (Escherichia coli, UniProt P23836); test = Sort-seq, measured: YFP reporter; test system = E. coli; conditions = PhoQ-PhoP variant library, added: 10 µM Mg2+; how to read = relative to: high Mg2+ state, higher = stronger signaling; quantity = fold induction; result = 5.96
